{"data": "Assay results collected from several papers", "note": "Each numbered part is a random draw from the data of one study; scales do not carry over between parts. Positions count from the first letter of the parent shown."}
{"data": "Study 1", "target": "Histone acetyltransferase KAT6A, winged helix 2, GST fusion (KAT6A, Homo sapiens, UniProt Q92794, residues 85-181)", "method": "protein binding microarray", "molecule type": "double-stranded DNA, one strand shown", "sample": "in vitro", "tested at": "not given", "setting": "8-mer, flanks averaged, mean of 2 arrays, mostly near background", "reference": "not given", "reading": "higher = stronger binding", "Residues (chain)": "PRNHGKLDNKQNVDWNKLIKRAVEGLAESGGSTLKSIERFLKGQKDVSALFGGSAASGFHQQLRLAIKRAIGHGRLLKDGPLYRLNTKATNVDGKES"}
{"Oligonucleotide": "ATCCTATG", "E-score": -0.126}
{"Oligonucleotide": "CTTCGGTA", "E-score": -0.0743}
{"Oligonucleotide": "ATAAAAAT", "E-score": 0.107}
{"Oligonucleotide": "CACAAAAA", "E-score": 0.135}
{"Oligonucleotide": "ACATCTTC", "E-score": -0.0502}
{"Oligonucleotide": "ATCTCAAA", "E-score": -0.0241}
{"Oligonucleotide": "AGAAGGAC", "E-score": -0.0483}
{"Oligonucleotide": "AAACTGAT", "E-score": -0.0289}
{"Oligonucleotide": "GACCACGC", "E-score": -0.061}
{"Oligonucleotide": "GTGACCAC", "E-score": -0.0324}
{"Oligonucleotide": "CCTGATCC", "E-score": 0.0278}
{"Oligonucleotide": "ATTAACGG", "E-score": -0.081}
{"Oligonucleotide": "CCTCCTCC", "E-score": 0.211}
{"Oligonucleotide": "GGCCACCC", "E-score": 0.182}
{"Oligonucleotide": "CGACCTGC", "E-score": 0.217}
{"Oligonucleotide": "GTCCGATA", "E-score": -0.103}
{"Oligonucleotide": "CTACCCCA", "E-score": -0.0807}
{"Oligonucleotide": "GTATGATA", "E-score": 0.0891}
{"Oligonucleotide": "CTTCCTCA", "E-score": -0.0338}
{"Oligonucleotide": "ATAGGTCC", "E-score": 0.0495}
{"Oligonucleotide": "ACACAATA", "E-score": -0.194}
{"Oligonucleotide": "GTAGCCCA", "E-score": -0.0566}
{"data": "Study 2", "target": "CCND1, cyclin fold, Cln2 fusion (human)", "method": "yeast growth competition, sequencing", "sample": "yeast", "setting": "weak parent motif", "reference": "not given", "reading": "higher = stronger binding", "starting sequence": "WEE1 docking peptide (human); CTLRQKLIFSPCS; partner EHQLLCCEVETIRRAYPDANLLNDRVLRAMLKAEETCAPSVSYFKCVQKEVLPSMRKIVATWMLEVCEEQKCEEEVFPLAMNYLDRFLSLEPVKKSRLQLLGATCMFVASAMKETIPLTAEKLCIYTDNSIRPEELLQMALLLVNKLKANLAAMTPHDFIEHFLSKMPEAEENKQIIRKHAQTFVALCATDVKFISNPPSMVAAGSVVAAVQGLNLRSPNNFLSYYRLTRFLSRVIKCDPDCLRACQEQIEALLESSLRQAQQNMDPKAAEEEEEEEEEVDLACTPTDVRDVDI"}
{"Substitution": "P11A", "normalised enrichment score": 0.13}
{"Substitution": "F9A", "normalised enrichment score": -0.128}
{"Substitution": "L7A", "normalised enrichment score": -0.104}
{"Substitution": "T2A", "normalised enrichment score": 0.000509}
{"Substitution": "C1A", "normalised enrichment score": 0.288}
{"Substitution": "L3A", "normalised enrichment score": 0.491}
{"Substitution": "C12A", "normalised enrichment score": 0.0241}
{"data": "Study 3", "target": "RNA binding protein fox-1 homolog 2, RRM domain, GST-SBP tag (RBFOX2, Homo sapiens, UniProt O43251-10, residues 100-194)", "method": "RNA Bind-n-Seq", "molecule type": "RNA", "sample": "in vitro", "tested at": "365 nM", "setting": "natural RNA segment, single round, ends assumed", "reference": "no-protein control", "reading": "higher = stronger binding", "constant ends, left off below": "GGGAGUUCUACAGUCCGACGAUC … UGGAAUUCUCGGGUGCCAA", "Construct (chain)": "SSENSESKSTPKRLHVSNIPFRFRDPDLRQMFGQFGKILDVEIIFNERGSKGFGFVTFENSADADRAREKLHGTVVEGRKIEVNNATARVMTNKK"}
{"Oligonucleotide": "UUUUAAAACUAUGUAAUAUUUGGACCAGAUGUUGUGAAUAACAGUAGAGAAAGCUAUUUUAUUCUGUAUUUUUAAAACUGUUCCGUACAAAUAAAAGCUCUCCUGGAUGU", "RBNS enrichment (R)": 0.457}
{"Oligonucleotide": "CACUUUGGGUGGGUGAGGCAGGCGGAUCACUUGAAGCCAGGACUUCAAGACCAGCUUGGCCAACAUGGUGAAACCUCAUCUCUACUAAAAAUACAAAAAUUAGCCAAGUG", "RBNS enrichment (R)": 0.365}
{"Oligonucleotide": "AUGCAGCUGAUACAUUCUUUUCAGCUUCUUAUUGAUGAUUGUAGAUAGAAAAAUCCUUGUUUAUUCUUCUUGCUGCCUGGCUUUAAUAAAUAUUUCAGAUGCCUCACAGU", "RBNS enrichment (R)": 0.382}
{"Oligonucleotide": "UUUUGACUGAAAGUACUAAAAGUCAGCUUUACUAGUGCCAAACCUUUAAAUUUUCAAAAGAAAAUUUUCUUUCAACAUUUCUUGAAGGACAUGGAGUGGAGAUUGGAUCA", "RBNS enrichment (R)": 0.338}
{"Oligonucleotide": "UUCCUCCCGGCCCUGUGGGCCAGGGAGGGGCGUUGGAAACAGCACUUUAUAUUUAUAUAGAACAUUGAGGUUGUGUCAAUAAAAACAGUGUUUUGUUUAAAAAAGAGCAG", "RBNS enrichment (R)": 0.294}
{"Oligonucleotide": "UCCUAGUAGGGGUACCACUGAAUCUGUACAGAGCCGUAAAAACUGAAGUUCUGCCUCUGAUGUAUUUUGUGAGUUUGUUUCUUUGAAUUUUCAUUUUACAGUUACUUUUC", "RBNS enrichment (R)": 0.58}
{"Oligonucleotide": "AAUGCAAAGCCACAUACUUUGAAAUAUAUUAUUCCAAAUUGAGCUCCCUUCCCUUUGCACAUAUUUUUUCCUCCCCUUAUUGAAGUCAGCUCUAACCCCAAAUUCUAGUA", "RBNS enrichment (R)": 1.94}
{"Oligonucleotide": "UUUGUGGAAUCCCGUAAGCGUAGAAUACCAAGUUUAGUGACUAUUUAAACUGGGCUGAGGCUGGUAAGACUAUAAAGCAGUGGCCCAUAAGGACUCUUAAGCGUGAGGCC", "RBNS enrichment (R)": 0.621}
{"data": "Study 4", "target": "ABI1, truncated, D143A, DHFR fusion (Arabidopsis thaliana)", "method": "DHFR PCA, deep sequencing", "sample": "yeast", "setting": "methotrexate growth selection, single substitutions", "added": "(+)-ABA 710 µM", "reference": "wild-type fitted maximum", "reading": "higher = stronger binding", "starting sequence": "PYL1, truncated, DHFR fusion (Arabidopsis thaliana); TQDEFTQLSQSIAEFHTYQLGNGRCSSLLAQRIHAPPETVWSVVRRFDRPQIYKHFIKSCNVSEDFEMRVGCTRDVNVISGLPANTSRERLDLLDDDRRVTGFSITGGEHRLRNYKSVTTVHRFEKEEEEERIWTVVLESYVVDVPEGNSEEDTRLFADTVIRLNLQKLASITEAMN"}
{"Substitution": "H16D", "relative binding score [%]": 5.2}
{"Substitution": "Q167G", "relative binding score [%]": 99.9}
{"Substitution": "D159Q", "relative binding score [%]": 83.7}
{"Substitution": "V78E", "relative binding score [%]": -0.819}
{"Substitution": "Q2C", "relative binding score [%]": 104}
{"Substitution": "V70L", "relative binding score [%]": 94.6}
{"Substitution": "I172L", "relative binding score [%]": 101}
{"Substitution": "A158N", "relative binding score [%]": 86.6}
{"Substitution": "L94E", "relative binding score [%]": 16}
{"Substitution": "F56C", "relative binding score [%]": 92.6}
{"Substitution": "L169R", "relative binding score [%]": -0.0564}
{"Substitution": "K54V", "relative binding score [%]": -8.6}
{"Substitution": "N77A", "relative binding score [%]": 102}
{"Substitution": "N22R", "relative binding score [%]": 103}
{"Substitution": "H122T", "relative binding score [%]": 81.8}
{"Substitution": "E131G", "relative binding score [%]": 106}
{"Substitution": "Q19K", "relative binding score [%]": 100}
